Published values collected from several papers.
Protocols differ between the studies behind these lines. Numbers after ± are the reported error.
PLA2G5: Phospholipase A2 group V (PLA2G5, Homo sapiens, UniProt P39877)
Chain of UniProt P39877 (whole entry, looked up): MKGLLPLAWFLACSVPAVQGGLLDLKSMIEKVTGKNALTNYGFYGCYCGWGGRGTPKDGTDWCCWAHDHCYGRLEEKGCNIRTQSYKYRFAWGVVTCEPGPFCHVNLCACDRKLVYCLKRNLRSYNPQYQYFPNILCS
EPHX1: Epoxide hydrolase 1 (EPHX1, Homo sapiens, UniProt P07099)
Chain of UniProt P07099 (whole entry, looked up): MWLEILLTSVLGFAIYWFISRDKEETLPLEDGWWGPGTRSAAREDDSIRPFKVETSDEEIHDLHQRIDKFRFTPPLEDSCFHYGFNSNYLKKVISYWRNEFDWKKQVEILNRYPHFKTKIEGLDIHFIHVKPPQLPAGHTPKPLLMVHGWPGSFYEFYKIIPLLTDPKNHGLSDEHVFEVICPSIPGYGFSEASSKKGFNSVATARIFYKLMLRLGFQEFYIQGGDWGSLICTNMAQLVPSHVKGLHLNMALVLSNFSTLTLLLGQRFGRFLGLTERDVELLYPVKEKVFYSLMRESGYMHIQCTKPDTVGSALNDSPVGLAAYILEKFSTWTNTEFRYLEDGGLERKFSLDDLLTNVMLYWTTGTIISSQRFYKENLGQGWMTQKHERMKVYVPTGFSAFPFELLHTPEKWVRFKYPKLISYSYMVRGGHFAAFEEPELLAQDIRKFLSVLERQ
Aldo-keto reductase family 1 member A1: Aldo-keto reductase family 1 member A1 (Bos taurus, UniProt Q3ZCJ2)
Chain of UniProt Q3ZCJ2 (whole entry, looked up): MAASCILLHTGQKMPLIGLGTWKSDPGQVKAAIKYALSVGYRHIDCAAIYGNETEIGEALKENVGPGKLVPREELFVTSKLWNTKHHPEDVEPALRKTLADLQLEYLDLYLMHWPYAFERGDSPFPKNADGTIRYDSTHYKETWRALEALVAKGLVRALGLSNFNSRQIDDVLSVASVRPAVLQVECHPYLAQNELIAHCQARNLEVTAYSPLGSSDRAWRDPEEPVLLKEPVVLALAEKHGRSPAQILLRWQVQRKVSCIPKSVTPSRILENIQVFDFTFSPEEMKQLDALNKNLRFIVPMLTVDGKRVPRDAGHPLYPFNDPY
CNGA1: Cyclic nucleotide-gated channel alpha-1 (CNGA1, Bos taurus, UniProt Q00194)
Chain of UniProt Q00194 (whole entry, looked up): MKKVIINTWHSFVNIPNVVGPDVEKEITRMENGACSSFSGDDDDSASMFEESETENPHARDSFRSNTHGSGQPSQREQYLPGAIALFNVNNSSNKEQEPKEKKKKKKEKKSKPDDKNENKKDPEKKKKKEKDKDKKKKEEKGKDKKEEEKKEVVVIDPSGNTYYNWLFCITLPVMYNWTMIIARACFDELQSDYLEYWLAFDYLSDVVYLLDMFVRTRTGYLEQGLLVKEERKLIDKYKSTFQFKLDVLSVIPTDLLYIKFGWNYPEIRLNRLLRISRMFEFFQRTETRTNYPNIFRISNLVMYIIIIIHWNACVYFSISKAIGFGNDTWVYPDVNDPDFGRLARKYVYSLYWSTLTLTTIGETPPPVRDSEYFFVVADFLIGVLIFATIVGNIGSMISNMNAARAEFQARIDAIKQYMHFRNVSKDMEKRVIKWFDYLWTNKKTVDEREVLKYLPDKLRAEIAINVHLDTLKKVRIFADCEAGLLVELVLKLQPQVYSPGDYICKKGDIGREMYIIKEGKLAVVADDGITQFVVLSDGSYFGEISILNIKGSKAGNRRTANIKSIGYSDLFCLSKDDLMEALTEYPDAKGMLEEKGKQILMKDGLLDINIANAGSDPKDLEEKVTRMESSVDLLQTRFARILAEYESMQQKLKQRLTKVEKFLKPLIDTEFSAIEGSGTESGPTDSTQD
SLC51A with OSTβ: Organic solute transporter subunit alpha, with OSTβ (SLC51A, Homo sapiens, UniProt Q86UW1)
Chain of UniProt Q86UW1 (whole entry, looked up): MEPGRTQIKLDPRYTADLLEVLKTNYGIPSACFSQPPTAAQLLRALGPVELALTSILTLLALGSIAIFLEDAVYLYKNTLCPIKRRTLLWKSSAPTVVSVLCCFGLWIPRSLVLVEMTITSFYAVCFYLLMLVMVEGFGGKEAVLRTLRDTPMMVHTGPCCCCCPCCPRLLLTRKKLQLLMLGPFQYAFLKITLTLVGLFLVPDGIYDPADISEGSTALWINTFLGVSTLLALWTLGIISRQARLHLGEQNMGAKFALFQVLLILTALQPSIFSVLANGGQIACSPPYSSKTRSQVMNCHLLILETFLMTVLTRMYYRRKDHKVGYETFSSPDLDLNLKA
Chain of UniProt Q9NRA0 (whole entry, looked up): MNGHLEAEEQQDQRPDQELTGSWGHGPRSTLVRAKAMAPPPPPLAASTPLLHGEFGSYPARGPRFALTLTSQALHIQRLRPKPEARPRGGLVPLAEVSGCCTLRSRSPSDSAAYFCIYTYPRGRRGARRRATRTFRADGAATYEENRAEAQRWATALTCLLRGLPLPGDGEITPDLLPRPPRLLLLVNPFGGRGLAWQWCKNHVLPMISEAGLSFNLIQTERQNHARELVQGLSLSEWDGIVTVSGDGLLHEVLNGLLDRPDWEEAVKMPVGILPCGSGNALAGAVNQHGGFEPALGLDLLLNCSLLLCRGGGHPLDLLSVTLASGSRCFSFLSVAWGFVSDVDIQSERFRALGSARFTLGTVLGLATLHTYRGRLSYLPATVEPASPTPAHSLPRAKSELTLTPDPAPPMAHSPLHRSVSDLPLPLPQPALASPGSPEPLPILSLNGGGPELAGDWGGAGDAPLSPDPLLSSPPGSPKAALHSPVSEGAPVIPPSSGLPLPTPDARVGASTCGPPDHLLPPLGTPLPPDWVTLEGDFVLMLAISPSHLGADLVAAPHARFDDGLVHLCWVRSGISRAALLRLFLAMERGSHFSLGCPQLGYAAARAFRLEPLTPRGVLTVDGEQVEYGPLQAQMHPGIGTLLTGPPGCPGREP
Chain of UniProt Q9GZV9 (whole entry, looked up): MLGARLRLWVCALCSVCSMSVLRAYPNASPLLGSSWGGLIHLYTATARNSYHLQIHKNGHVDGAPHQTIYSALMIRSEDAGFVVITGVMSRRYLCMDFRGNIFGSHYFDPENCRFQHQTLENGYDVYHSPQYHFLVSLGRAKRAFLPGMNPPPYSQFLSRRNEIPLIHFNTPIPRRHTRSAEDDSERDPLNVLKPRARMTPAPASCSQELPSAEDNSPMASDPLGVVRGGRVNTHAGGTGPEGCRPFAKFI
Chain of UniProt Q9Y6F1 (whole entry, looked up): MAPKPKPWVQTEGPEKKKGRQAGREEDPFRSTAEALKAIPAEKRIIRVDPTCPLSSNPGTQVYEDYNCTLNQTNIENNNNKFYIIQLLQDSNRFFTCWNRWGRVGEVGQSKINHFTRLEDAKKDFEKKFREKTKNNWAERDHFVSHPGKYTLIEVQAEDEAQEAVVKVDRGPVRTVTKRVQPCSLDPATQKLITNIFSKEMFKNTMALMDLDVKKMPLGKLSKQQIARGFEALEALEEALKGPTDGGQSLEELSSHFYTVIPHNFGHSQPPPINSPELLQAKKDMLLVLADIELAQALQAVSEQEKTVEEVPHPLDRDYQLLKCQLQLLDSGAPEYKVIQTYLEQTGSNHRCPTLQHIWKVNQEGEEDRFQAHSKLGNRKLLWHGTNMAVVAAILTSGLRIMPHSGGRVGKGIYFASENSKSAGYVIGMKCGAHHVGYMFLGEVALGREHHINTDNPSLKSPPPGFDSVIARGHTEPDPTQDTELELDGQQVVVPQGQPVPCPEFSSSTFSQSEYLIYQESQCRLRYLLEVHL
Chain of UniProt P28221 (whole entry, looked up): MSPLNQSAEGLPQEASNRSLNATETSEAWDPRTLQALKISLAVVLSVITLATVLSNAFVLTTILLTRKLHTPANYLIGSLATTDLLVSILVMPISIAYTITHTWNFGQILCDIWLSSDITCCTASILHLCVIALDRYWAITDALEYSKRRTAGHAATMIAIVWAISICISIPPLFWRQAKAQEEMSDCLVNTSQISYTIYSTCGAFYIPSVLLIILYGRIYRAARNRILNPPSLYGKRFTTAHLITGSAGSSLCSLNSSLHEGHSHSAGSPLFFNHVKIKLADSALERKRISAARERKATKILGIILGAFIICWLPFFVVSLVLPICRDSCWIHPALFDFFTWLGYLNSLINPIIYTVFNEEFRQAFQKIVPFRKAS
Chain of UniProt Q00534 (whole entry, looked up): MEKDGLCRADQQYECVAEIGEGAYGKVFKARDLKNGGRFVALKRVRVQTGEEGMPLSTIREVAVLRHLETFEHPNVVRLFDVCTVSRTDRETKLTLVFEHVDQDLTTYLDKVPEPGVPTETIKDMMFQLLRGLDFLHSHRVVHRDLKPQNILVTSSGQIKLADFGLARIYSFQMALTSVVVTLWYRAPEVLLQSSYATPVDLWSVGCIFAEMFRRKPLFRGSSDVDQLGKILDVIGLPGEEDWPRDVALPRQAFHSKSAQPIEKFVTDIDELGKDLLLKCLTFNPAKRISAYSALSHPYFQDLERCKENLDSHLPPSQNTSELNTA
Chain of UniProt O43570 (whole entry, looked up): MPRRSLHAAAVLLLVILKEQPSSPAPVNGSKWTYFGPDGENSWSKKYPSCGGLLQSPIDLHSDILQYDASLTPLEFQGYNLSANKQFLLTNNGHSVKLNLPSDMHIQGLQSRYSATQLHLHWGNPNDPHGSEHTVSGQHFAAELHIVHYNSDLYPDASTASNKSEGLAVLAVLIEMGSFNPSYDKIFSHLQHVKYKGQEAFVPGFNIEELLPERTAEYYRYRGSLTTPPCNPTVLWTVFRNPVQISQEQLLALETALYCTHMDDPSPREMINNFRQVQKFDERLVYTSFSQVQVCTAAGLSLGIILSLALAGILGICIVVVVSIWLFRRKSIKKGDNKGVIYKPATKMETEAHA

Substance | target | assay | system | setting | scale | inhibition
O=S(=O)(Sc1ccccc1Br)c1ccccc1Br | tubulin | colchicine binding | – | 5 µM, 10 min, 37 °C, together with: 5.0 µM [3H]colchicine | – | 18 ± 5%
CC[C@@H](C)[C@H](NC(=O)C(=O)CCCCc1ccc(OC)cc1)C(=O)NCC(=O)OC(C)(C)C | PLA2G5 | enzyme activity, mixed micelle | – | 0.091 mole fraction | – | 48.2 ± 9.3%
CCCCCCCCCCCCNS(C)(=O)=O | EPHX1 | enzyme activity, inhibitor, fluorescence | – | 100 µM | – | 40%
Cc1ccc(O)c(C=NNC(=S)Nc2ccc(Cl)cc2)c1 | Aldo-keto reductase family 1 member A1 | inhibitor | Bos taurus (calf) | 100 µM, together with: D-glucuronate substrate | – | 35.1%
O=c1c(-c2ccc(O)cc2)coc2cc(O)cc(O)c12 | CNGA1 | cGMP-activated current, closed-channel blocker, inside-out patch clamp | Xenopus oocytes | concentration not given, 1 min preapplication, together with: saturating cGMP | – | 98 ± 3%
Fc1ccc(SSc2ccc(F)cc2)cc1 | tubulin | colchicine binding, [3H]colchicine binding | – | 5 µM, 10 min, 37 °C, together with: [3H]colchicine 5.0 µM | – | 2.6 ± 4%
C/C(=N/N=c1/scc(-c2ccc([N+](=O)[O-])cc2)n1-c1ccccc1)c1ccc2c(c1)NC(=O)CO2 | Aldo-keto reductase family 1 member A1 | enzyme activity, inhibitor, absorbance | – | 1 mM | – | 31.4%
O=S(=O)(Sc1ccc(F)cc1)c1ccc(F)cc1 | tubulin | colchicine binding | – | 5 µM, 10 min, 37 °C, together with: 5.0 µM [3H]colchicine | – | 52 ± 5%
CC(=N/N=c1\scc(-c2ccc(Br)cc2)n1-c1c(C)cccc1C)C12CC3CC(CC(C3)C1)C2 | Aldo-keto reductase family 1 member A1 | enzyme activity, inhibitor, absorbance | – | 1 mM | – | 11.6%
Fc1ccccc1SSc1ccccc1F | tubulin | colchicine binding, [3H]colchicine binding | – | 5 µM, 10 min, 37 °C, together with: [3H]colchicine 5.0 µM | – | 0 ± 4%
CCCCCCCCCCCCNC(=O)C(F)(F)F | EPHX1 | enzyme activity, inhibitor, fluorescence | – | 100 µM | – | 0%
CC(C)(C)c1cnc(CSc2cnc(NC(=O)C3CCN(CC(=O)NCCOCCOCCOCCNc4cccc5c4C(=O)N(C4CCC(=O)NC4=O)C5=O)CC3)s2)o1 (centres unmarked) | CDK6 (Homo sapiens, UniProt Q00534) | probe labeling, KiNativ live-cell profiling | MOLT-4 | 0.25 µM | – | 11.1%
GMGPRGLLL | Qa-1 (mouse), soluble | binding, SPR competition | peptide | 20 µM, 25 °C, 2% DMSO, unit not given | reference: maximal blocking by 20 µM Qdm | 0.59
C/C(=N/N=c1/scc(-c2ccc([N+](=O)[O-])cc2)n1-c1ccc(F)cc1)c1ccc2c(c1)OCCO2 | Aldo-keto reductase family 1 member A1 | enzyme activity, inhibitor, absorbance | – | 1 mM | – | 4.5%
O=c1c(-c2ccc(O)cc2)coc2cc(O)cc(O)c12 | CNGA1 | ion current, inside-out patch clamp | Xenopus oocytes | 100 µM, erbstatin 100 µM pretreatment, together with: cGMP 2 mM | – | 5.4 ± 1.7%
COc1ccc2c(c1)c(CC(=O)O)c(C)n2C(=O)c1ccc(Cl)cc1 | SLC51A with OSTβ | transport | Flp-In-293 cells overexpressing OSTα/β | 100 µM, 30 s, together with: DHEAS 20 µM | – | no inhibition
O=[N+]([O-])c1ccc(-c2cs/c(=N/N=C\c3c[nH]c4ccccc34)n2-c2ccc(F)cc2)cc1 | Aldo-keto reductase family 1 member A1 | enzyme activity, inhibitor, absorbance | – | 1 mM | – | < 50%
Cc1ccc(O)c(C=NNC(=S)NC2CCCCC2)c1 | Aldo-keto reductase family 1 member A1 | inhibitor | Bos taurus (calf) | 100 µM, together with: D-glucuronate substrate | – | < 50%
C/C(=N/N=c1/scc(-c2ccc([N+](=O)[O-])cc2)n1Cc1ccccc1)c1ccc2c(c1)OCCO2 | Aldo-keto reductase family 1 member A1 | enzyme activity, inhibitor, absorbance | – | 1 mM | – | 23.6%

Substance | target | assay | system | setting | scale | inhibition
O/N=C/C1=C(/C=C/c2ccc(F)cc2)CCC1 | Fibroblast growth factor 23 (Homo sapiens, UniProt Q9GZV9) | ERK reporter gene, inhibitor | HEK293T expressing FGFR and α-Klotho | 10 µM, together with: FGF-23 | – | 100%
O=C(O)c1cc(N(Cc2ccccc2O)Cc2cc(O)ccc2O)ccc1O | CNGA1 | cGMP-activated current, inhibitor, inside-out patch clamp | Xenopus oocytes | 10 µM, no ATP, together with: cGMP 2 mM | – | no effect
NS(=O)(=O)c1ccc(N2N=C(c3ccc(F)cc3O)CC2c2ccc(Br)cc2)cc1 (centres unmarked) | CA12 (Homo sapiens, UniProt O43570) | enzyme activity, inhibitor, absorbance | – | 1 mM | – | 37%
C/C(=N/N=c1/scc(-c2ccc(Cl)cc2)n1-c1ccccc1)c1ccc2c(c1)NC(=O)CO2 | Aldo-keto reductase family 1 member A1 | enzyme activity, inhibitor, absorbance | – | 1 mM | – | 31.3%
Cc1ccc(O)c(C=NNC(=S)NCCc2ccccc2)c1 | Aldo-keto reductase family 1 member A1 | inhibitor | Bos taurus (calf) | 100 µM, together with: D-glucuronate substrate | – | 39.9%
COc1cccc(-n2c(-c3ccc(Cl)cc3)cs/c2=N/N=C(/C)c2ccc3c(c2)NC(=O)CO3)c1 | Aldo-keto reductase family 1 member A1 | enzyme activity, inhibitor, absorbance | – | 1 mM | – | 32.8%
O=CN/C=C/c1cc(O)ccc1O | CNGA1 | cGMP-activated current, inhibitor, inside-out patch clamp | Xenopus oocytes | 25 µM, no ATP, together with: cGMP 2 mM | – | no effect
[H]/N=C(/N)N1CCC[C@H]1c1nc(-c2ccc(OCCC=CCCCC)c(C(F)(F)F)c2)no1 | SPHK2 (Homo sapiens, UniProt Q9NRA0) | enzyme activity, inhibitor, radiometric | – | 0.3 µM | – | 54%
CCCCCCCCCCCCCCC(=O)C(=O)N[C@H](C(=O)NCC(=O)OC(C)(C)C)C(C)C | PLA2G5 | enzyme activity, inhibitor, mixed micelle | – | 0.091 mole fraction | – | ~80%
Cc1nc2sccn2c(=O)c1CCN1CCC(=C(c2ccccc2)c2ccc(F)cc2)CC1 | HTR1D (Homo sapiens, UniProt P28221) | agonist response, antagonist | – | 10 µM, together with: reference agonist at EC90 | – | 108%
O=C1NCC(c2ccccc2)C(O)c2ccccc21 (racemic) | PARP3 (Homo sapiens, UniProt Q9Y6F1) | enzyme activity, inhibitor | – | 10 µM | – | 91%
Brc1cccc(SSc2cccc(Br)c2)c1 | tubulin | colchicine binding, [3H]colchicine binding | – | 5 µM, 10 min, 37 °C, together with: [3H]colchicine 5.0 µM | – | 6.6 ± 5%
CCc1c(Cl)c(O)c(Cl)c(O)c1C(=O)O[C@H]1[C@H](O)[C@H](OC)[C@H](OC/C2=C\C=C\C[C@H](O)/C(C)=C/[C@H](CC)[C@@H](O[C@@H]3OC(C)(C)[C@@H](OC(=O)C(C)C)[C@H](O)[C@@H]3O)/C(C)=C/C(C)=C/C[C@@H]([C@@H](C)O)OC2=O)O[C@@H]1C | SLC51A with OSTβ | DHEAS uptake, inhibitor | Flp-In-293 expressing OSTα/β | 100 µM, 30 s, co-incubation only, together with: DHEAS 20 µM | – | > 80%
Clc1ccccc1SSc1ccccc1Cl | tubulin | colchicine binding, [3H]colchicine binding | – | 50 µM, 10 min, 37 °C, together with: [3H]colchicine 5.0 µM | – | 36 ± 2%
Cc1ccc(O)c(C=NNC(=S)Nc2ccc(N(C)C)cc2)c1 | Aldo-keto reductase family 1 member A1 | inhibitor | Bos taurus (calf) | 100 µM, together with: D-glucuronate substrate | – | 27.8%
O=S(=O)(Sc1ccccc1F)c1ccccc1F | tubulin | colchicine binding | – | 5 µM, 10 min, 37 °C, together with: 5.0 µM [3H]colchicine | – | 0%
CC(=N/N=c1\scc(-c2ccc(Cl)cc2)n1Cc1ccccc1)C12CC3CC(CC(C3)C1)C2 | Aldo-keto reductase family 1 member A1 | enzyme activity, inhibitor, absorbance | – | 1 mM | – | 33.5%
O=S(=O)(Sc1cccc(F)c1)c1cccc(F)c1 | tubulin | colchicine binding, [3H]colchicine binding | – | 50 µM, 10 min, 37 °C, together with: [3H]colchicine 5.0 µM | – | 97 ± 0.1%
CCCCCCCC(=O)OC[C@H](CO)OC(=O)CCCCCCC | CNGA1 | cGMP-activated current, inside-out patch, Xenopus oocytes | – | 0.5 µM, together with: cGMP 2 mM, saturating | – | ~42%

Repeated from above:
Substance | target | assay | system | setting | scale | inhibition
O=C(O)c1cc(N(Cc2ccccc2O)Cc2cc(O)ccc2O)ccc1O | CNGA1 | cGMP-activated current, inhibitor, inside-out patch clamp | Xenopus oocytes | 10 µM, no ATP, together with: cGMP 2 mM | – | no effect
CC[C@@H](C)[C@H](NC(=O)C(=O)CCCCc1ccc(OC)cc1)C(=O)NCC(=O)OC(C)(C)C | PLA2G5 | enzyme activity, mixed micelle | – | 0.091 mole fraction | – | 48.2 ± 9.3%
O=[N+]([O-])c1ccc(-c2cs/c(=N/N=C\c3c[nH]c4ccccc34)n2-c2ccc(F)cc2)cc1 | Aldo-keto reductase family 1 member A1 | enzyme activity, inhibitor, absorbance | – | 1 mM | – | < 50%
Cc1ccc(O)c(C=NNC(=S)NC2CCCCC2)c1 | Aldo-keto reductase family 1 member A1 | inhibitor | Bos taurus (calf) | 100 µM, together with: D-glucuronate substrate | – | < 50%
